Experimental data gathered from unrelated publications.
Every numbered part comes from another study and shows a few of its results, in no order. Several values in a cell are separate wells, animals, samples, runs or records.
UniProt O60285, sequence (whole entry, looked up): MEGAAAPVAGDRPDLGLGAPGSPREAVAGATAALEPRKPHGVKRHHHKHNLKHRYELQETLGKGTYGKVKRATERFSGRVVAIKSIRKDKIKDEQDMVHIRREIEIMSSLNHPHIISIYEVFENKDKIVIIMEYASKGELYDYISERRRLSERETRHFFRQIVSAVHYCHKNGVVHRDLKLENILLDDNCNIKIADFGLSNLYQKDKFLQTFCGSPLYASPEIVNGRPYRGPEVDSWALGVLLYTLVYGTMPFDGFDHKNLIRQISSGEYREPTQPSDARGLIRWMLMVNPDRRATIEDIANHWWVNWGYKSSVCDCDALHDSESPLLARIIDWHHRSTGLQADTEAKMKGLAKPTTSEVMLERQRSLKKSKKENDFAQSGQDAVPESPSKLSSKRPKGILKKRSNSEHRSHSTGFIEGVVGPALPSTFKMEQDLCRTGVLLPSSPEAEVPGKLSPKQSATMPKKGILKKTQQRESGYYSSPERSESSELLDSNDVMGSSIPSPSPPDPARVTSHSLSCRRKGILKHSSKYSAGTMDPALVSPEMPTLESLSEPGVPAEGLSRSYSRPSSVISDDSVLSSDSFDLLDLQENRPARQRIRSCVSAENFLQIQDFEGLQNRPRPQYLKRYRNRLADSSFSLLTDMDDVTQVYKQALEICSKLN
UniProt Q8NEB9, sequence (whole entry, looked up): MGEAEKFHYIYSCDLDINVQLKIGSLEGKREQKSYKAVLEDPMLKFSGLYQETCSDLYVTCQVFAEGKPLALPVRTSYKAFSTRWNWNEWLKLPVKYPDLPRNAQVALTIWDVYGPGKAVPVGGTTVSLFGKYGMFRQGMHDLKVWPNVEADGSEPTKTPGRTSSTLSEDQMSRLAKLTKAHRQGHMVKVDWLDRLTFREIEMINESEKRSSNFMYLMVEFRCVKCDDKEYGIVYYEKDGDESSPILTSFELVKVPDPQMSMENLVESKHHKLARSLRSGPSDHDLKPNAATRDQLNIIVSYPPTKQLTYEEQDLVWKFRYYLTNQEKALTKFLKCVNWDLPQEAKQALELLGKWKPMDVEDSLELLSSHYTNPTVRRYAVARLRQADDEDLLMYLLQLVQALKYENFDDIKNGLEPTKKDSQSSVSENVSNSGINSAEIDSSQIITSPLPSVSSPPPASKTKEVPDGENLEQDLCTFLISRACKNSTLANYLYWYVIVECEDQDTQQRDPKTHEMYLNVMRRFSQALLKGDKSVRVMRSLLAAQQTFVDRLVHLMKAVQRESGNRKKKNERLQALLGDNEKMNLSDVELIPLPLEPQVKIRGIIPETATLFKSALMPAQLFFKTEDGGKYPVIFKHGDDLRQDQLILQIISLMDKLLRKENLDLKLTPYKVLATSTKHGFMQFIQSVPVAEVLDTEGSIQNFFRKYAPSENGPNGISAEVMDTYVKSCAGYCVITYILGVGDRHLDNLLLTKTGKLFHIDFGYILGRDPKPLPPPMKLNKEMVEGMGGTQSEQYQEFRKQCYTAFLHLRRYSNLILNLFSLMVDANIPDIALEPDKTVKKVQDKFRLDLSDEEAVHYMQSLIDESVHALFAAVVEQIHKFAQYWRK
UniProt P09769, sequence (whole entry, looked up): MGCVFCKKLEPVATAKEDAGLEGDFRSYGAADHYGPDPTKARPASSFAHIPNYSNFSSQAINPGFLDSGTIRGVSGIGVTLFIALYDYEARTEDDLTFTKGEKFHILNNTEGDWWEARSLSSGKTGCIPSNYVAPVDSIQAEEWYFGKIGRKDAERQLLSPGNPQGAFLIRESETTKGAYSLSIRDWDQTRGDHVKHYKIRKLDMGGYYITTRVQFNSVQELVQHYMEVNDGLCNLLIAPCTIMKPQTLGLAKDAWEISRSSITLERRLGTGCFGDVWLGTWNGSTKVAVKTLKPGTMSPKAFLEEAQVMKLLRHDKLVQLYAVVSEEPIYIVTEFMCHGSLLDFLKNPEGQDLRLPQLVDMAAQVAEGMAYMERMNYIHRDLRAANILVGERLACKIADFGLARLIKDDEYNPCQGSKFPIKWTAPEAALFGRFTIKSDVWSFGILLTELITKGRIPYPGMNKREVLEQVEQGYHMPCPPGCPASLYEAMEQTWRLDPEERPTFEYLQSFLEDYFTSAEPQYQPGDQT

Block 1
Target: Cyclin-dependent kinase 12, with cyclin K (CDK12, Homo sapiens, UniProt Q9NYV4)
UniProt Q9NYV4, sequence (whole entry, looked up): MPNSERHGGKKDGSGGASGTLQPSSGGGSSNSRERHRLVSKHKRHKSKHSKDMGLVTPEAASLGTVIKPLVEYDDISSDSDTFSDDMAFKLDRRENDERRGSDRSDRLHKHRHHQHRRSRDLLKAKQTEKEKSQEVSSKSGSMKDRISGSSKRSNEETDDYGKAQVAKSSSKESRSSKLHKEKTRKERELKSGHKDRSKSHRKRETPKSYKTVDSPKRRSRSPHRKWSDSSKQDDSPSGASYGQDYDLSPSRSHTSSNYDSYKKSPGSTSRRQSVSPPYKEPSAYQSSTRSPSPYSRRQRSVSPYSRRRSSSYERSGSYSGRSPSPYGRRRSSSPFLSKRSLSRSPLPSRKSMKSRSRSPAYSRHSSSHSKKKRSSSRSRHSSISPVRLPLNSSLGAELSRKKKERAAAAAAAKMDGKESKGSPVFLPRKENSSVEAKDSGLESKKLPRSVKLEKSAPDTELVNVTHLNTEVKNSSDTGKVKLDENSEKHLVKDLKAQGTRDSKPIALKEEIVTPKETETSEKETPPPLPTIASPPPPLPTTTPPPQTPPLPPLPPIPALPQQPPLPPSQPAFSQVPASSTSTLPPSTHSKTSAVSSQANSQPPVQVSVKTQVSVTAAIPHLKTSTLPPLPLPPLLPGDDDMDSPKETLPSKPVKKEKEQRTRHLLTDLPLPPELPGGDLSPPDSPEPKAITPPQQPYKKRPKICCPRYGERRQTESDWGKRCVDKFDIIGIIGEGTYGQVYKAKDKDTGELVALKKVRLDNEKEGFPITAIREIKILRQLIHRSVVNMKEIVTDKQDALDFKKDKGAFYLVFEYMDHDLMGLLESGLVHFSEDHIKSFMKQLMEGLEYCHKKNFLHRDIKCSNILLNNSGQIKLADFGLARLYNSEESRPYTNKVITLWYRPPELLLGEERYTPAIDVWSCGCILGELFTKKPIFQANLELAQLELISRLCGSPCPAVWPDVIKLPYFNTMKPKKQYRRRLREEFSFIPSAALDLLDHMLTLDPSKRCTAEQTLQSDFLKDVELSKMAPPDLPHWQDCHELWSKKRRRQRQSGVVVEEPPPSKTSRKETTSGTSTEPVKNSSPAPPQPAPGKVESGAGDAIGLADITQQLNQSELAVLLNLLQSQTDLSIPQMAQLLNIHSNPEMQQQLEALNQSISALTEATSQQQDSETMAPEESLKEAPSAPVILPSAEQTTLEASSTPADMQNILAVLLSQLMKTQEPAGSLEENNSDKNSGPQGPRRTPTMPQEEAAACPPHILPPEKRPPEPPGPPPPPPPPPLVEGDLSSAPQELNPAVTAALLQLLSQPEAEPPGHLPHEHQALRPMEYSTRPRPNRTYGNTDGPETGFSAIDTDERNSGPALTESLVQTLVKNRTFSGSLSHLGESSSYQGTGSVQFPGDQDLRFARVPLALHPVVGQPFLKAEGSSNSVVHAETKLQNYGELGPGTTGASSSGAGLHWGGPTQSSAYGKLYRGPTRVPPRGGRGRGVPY
Effect on: kinase activity
Mode: inhibitor
Method: ADP-Glo
Tested at: 0.6667 µM
Compound | inhibition [%]
CCn1cnc2c(NCc3nc4cc(Cl)c(Cl)cc4[nH]3)nc(N3CCN(C(=O)c4ccccc4)CC3)nc21 | 84
CC(=O)N1CCN(c2nc(NCc3nc4cc(Cl)c(Cl)cc4[nH]3)c3ncn(C(C)C)c3n2)CC1 | 3.1
CCn1cnc2c(NCc3nc4cc(Cl)c(Cl)cc4[nH]3)nc(N3CCN(C(=O)CNC(C)=O)CC3)nc21 | 84.8
CCn1cnc2c(NCc3nc4cc(Cl)c(Cl)cc4[nH]3)nc(N3CCC(NC(C)=O)CC3)nc21 | 77.3
CCn1cnc2c(NCc3nc4cc(Cl)c(Cl)cc4[nH]3)nc(N3CCN(C(=O)c4ccncc4)CC3)nc21 | 84.9
CCn1cnc2c(NCc3nc4cc(Cl)c(Cl)cc4[nH]3)nc(N3CCN(C(=O)[C@H](C)NC(C)=O)CC3)nc21 | 67.3
CCn1cnc2c(NCc3nc4cc(Cl)c(Cl)cc4[nH]3)nc(N3CCn4ncnc4C3)nc21 | 88
CCn1cnc2c(NCc3nc4ccc(F)c(F)c4[nH]3)nc(N3CCn4ncnc4C3)nc21 | 77.9
CCn1cnc2c(NCc3nc4cc(Cl)c(Cl)cc4[nH]3)nc(N3CCN(S(C)(=O)=O)CC3)nc21 | 82.1
CCn1cnc2c(NCc3nc4cc(Cl)c(Cl)cc4[nH]3)nc(N3CCN(C(=O)c4cccnc4)CC3)nc21 | 79.1

Block 2
Target: E3 ubiquitin-protein ligase NEDD4, HECT domain (Homo sapiens, UniProt P46934)
Effect on: enzyme activity
Mode: inhibitor
Method: Ub-TR-FRET
Sample: HECT domain
Tested at: 3.704 µM
Reading: higher = more chain formation
Residues (P46934 938-1319, limits assumed): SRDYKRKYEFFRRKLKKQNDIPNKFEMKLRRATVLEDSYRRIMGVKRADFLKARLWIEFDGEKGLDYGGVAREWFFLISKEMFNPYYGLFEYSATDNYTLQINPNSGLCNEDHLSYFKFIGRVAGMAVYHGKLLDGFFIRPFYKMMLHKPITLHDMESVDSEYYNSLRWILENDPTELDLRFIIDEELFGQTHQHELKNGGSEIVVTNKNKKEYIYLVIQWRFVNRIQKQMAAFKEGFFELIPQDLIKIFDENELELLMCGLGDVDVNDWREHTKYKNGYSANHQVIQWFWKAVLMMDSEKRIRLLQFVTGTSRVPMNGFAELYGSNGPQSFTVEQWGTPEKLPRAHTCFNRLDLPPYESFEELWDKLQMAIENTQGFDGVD
SMILES | ubiquitin chain formation AUC
CNC(=O)/C=C/CNCCCCN1c2ccccc2CCc2ccc(Cl)cc21.Cl | 78800 a.u. and 77700 a.u. and 75000 a.u. and 63600 a.u. and 60700 a.u. and 61700 a.u.
COC(=O)CCCNCCCN1c2ccccc2CCc2ccc(Cl)cc21.COC(=O)CCCNCCCN1c2ccccc2CCc2ccc(Cl)cc21.O=C(O)/C=C/C(=O)O | 124000 a.u. and 125000 a.u.
CCOC(=O)/C=C/CNCCCCN1c2ccccc2C(=O)N(C)c2ccc(Cl)cc21.O=C(O)/C=C\C(=O)O | 32000 a.u. and 40500 a.u. and 42800 a.u.
CN(C)C(=O)/C=C/CNCCCN1c2ccccc2CCc2ccc(Cl)cc21.Cl | 133000 a.u. and 135000 a.u. and 134000 a.u.
CCOC(=O)/C=C/CNCCCCN1c2cc(Cl)ccc2COc2ccccc21.O=C(O)/C=C\C(=O)O | 12300 a.u. and 12000 a.u. and 14200 a.u.
CCOC(=O)/C=C/CNCCCN1c2ccccc2CCc2ccc(Cl)cc21 | 11200 a.u. and 11700 a.u. and 9850 a.u.
Cl.NC(=O)/C=C/CNCCCN1c2ccccc2CCc2ccc(Cl)cc21 | 129000 a.u. and 131000 a.u. and 130000 a.u.
CCOC(=O)/C=C/CNCCCCN1c2cc(Cl)ccc2CCc2cnn(C)c21.O=C(O)/C=C\C(=O)O | 8070 a.u. and 16000 a.u. and 7530 a.u. and 7700 a.u.
N#C/C=C/CNCCCCN1c2ccccc2CCc2ccc(Cl)cc21.O=C(O)/C=C\C(=O)O | 10100 a.u. and 10200 a.u. and 12100 a.u. and 10600 a.u. and 11200 a.u.

Block 3
Structure (SMILES): C[C@@H]1CN(c2ccc(-c3cc(C(=O)NCCOCCOCCOCCOCCNC(=O)Cn4cc(-c5[nH]cc(C(=O)N[C@@H](CC(N)=O)c6ccc(F)c(Cl)c6)c5-c5ccc(Cl)cc5F)cn4)ccc3F)cc2NC(=O)c2c[nH]c(=O)cc2C(F)(F)F)C[C@H](C)N1C
Effect on: thermal unfolding
Method: differential scanning fluorimetry
Tested at: 5.5 µM
Reading: higher = more unfolded
WDR5: WD repeat-containing protein 5 (WDR5, Homo sapiens, UniProt P61964)
DCAF1: DDB1- and CUL4-associated factor 1 (DCAF1, Homo sapiens, UniProt Q9Y4B6)
UniProt Q9Y4B6, sequence (whole entry, looked up): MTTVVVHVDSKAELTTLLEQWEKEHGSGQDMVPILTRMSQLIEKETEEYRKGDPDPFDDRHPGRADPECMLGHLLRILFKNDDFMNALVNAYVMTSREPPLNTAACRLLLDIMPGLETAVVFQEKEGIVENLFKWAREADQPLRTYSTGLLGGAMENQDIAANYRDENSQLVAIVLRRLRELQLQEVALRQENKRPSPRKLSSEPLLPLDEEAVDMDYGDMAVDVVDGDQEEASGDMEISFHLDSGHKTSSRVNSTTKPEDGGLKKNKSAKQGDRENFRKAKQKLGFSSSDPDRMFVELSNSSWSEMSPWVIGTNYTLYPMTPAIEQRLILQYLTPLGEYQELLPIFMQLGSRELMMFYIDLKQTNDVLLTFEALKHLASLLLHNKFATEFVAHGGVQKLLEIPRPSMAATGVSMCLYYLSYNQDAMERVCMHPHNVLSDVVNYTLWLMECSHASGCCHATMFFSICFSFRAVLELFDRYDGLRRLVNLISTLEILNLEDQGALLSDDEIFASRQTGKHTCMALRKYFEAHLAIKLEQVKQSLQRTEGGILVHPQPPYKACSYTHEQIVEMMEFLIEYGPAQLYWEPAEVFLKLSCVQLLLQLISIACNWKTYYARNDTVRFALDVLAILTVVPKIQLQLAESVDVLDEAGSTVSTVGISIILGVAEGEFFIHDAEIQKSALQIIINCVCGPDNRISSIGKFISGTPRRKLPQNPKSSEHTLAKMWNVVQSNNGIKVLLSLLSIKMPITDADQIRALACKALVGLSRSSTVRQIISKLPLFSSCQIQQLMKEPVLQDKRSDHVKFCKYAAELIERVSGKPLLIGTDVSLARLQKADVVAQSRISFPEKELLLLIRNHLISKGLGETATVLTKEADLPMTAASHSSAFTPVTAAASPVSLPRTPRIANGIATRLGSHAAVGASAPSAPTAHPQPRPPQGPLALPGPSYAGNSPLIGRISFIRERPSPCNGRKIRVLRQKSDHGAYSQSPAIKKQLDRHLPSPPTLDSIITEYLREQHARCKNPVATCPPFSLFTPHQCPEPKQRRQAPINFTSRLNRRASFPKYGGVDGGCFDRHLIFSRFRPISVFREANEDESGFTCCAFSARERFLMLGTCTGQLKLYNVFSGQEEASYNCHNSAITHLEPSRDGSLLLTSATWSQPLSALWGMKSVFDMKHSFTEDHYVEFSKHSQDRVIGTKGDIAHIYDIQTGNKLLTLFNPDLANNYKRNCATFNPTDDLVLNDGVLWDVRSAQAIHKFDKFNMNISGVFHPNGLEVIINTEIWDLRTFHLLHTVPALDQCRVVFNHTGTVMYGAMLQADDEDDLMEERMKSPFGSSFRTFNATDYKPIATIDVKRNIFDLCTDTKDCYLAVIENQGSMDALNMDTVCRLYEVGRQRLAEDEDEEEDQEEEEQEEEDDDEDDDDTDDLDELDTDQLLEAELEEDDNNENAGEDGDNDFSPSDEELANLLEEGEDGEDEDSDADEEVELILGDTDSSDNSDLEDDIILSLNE
target | temperature | SYPRO Orange fluorescence [a.u.]
WDR5 | 81.81 °C | 29300
WDR5 | 51 °C | 14400
DCAF1 | 35.4 °C | 8960
DCAF1 | 86.21 °C | 38600
DCAF1 | 54.21 °C | 18100
WDR5 | 87.01 °C | 42900
WDR5 | 66.41 °C | 7190
DCAF1 | 56.61 °C | 23600
DCAF1 | 84.61 °C | 40200
WDR5 | 55.21 °C | 13500
DCAF1 | 94.01 °C | 30900

Block 4
SMILES: O=C(Nc1ccccc1)Nc1cccc(Oc2ccc3nccn3n2)c1
Tested at: 1 µM
target | effect on | method | remaining binding [%]
RAC-beta serine/threonine-protein kinase (AKT2, Homo sapiens, UniProt P31751) | binding | – | 100
Vascular endothelial growth factor receptor 1 (FLT1, Homo sapiens, UniProt P17948) | binding | competition with immobilised ligand | 3.2
Serine/threonine-protein kinase tousled-like 2 (TLK2, Homo sapiens, UniProt Q86UE8) | binding | – | 100
Dual specificity protein kinase CLK1 (CLK1, Homo sapiens, UniProt P49759) | binding | competition with immobilised ligand | 94
Tyrosine-protein kinase Fgr (FGR, Homo sapiens, UniProt P09769) | cell-free assay | competition with immobilised ligand | 82
Serine/threonine-protein kinase WNK2 (WNK2, Homo sapiens, UniProt Q9Y3S1) | binding | – | 100
Tyrosine-protein kinase ZAP-70 (ZAP70, Homo sapiens, UniProt P43403) | binding | – | 100
Mast/stem cell growth factor receptor Kit, autoinhibited (KIT, Homo sapiens, UniProt P10721) | binding | competition with immobilised ligand | 61
Phosphatidylinositol 3-kinase catalytic subunit type 3 (PIK3C3, Homo sapiens, UniProt Q8NEB9) | binding | – | 100
Serine/threonine-protein kinase N1 (PKN1, Homo sapiens, UniProt Q16512) | binding | – | 100
Ribosomal protein S6 kinase beta-1 (RPS6KB1, Homo sapiens, UniProt P23443) | binding | – | 100
Misshapen-like kinase 1 (MINK1, Homo sapiens, UniProt Q8N4C8) | binding | competition with immobilised ligand | 87
Ephrin type-A receptor 7 (EPHA7, Homo sapiens, UniProt Q15375) | – | cell-free binding | 100
Serine/threonine-protein kinase Nek3 (NEK3, Homo sapiens, UniProt P51956) | binding | – | 92
Cyclin-G-associated kinase (GAK, Homo sapiens, UniProt O14976) | binding | competition with immobilised ligand | 100
Casein kinase I isoform alpha-like (CSNK1A1L, Homo sapiens, UniProt Q8N752) | binding | – | 41
NUAK family SNF1-like kinase 1 (NUAK1, Homo sapiens, UniProt O60285) | binding | – | 100

A few entries again (block 4):
target | effect on | method | remaining binding [%]
Phosphatidylinositol 3-kinase catalytic subunit type 3 (PIK3C3, Homo sapiens, UniProt Q8NEB9) | binding | – | 100
Mast/stem cell growth factor receptor Kit, autoinhibited (KIT, Homo sapiens, UniProt P10721) | binding | competition with immobilised ligand | 61
Vascular endothelial growth factor receptor 1 (FLT1, Homo sapiens, UniProt P17948) | binding | competition with immobilised ligand | 3.2
Casein kinase I isoform alpha-like (CSNK1A1L, Homo sapiens, UniProt Q8N752) | binding | – | 41
Serine/threonine-protein kinase N1 (PKN1, Homo sapiens, UniProt Q16512) | binding | – | 100
